Experimental data from different studies.
Numbered parts are unrelated; each lists some results of a single study. Positions count from the first letter of the parent shown.

Set 1
Target: RNA binding protein fox-1 homolog 2, RRM domain, GST-SBP tag (RBFOX2, Homo sapiens, UniProt O43251-10, residues 100-194)
Technique: RNA Bind-n-Seq
Form: RNA
Matrix: in vitro
Concentration: 365 nM
Notes: natural RNA segment, single round, ends assumed
Relative to: no-protein control
Reading: higher = stronger binding
Measurement: RBNS enrichment (R)
All sequences stand within: GGGAGUUCUACAGUCCGACGAUC … UGGAAUUCUCGGGUGCCAA
Target sequence (chain): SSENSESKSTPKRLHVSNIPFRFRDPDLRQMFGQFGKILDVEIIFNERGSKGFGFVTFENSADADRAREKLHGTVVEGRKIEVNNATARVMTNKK
CAGGAGAGGCCCAGGCCACCAUGGGCUUUGAGUCAUCCAAACAGCUCUACUGCUGUCCUACAAUACAUGAGGUGACUUCCGGCCAUGCUGCCCACUGUUGGCGGCUCUGU: 0.232
AAAACUAUAUCUGCAGGGAUGAAUCUGUAACUUAAAUUGGGCCAAUCAGAAUUGUUAUCUUUGUUCAGGUAAAAUGAGUUGCAAGAUAUUGUGGGUACUUUUGUGUGCUC: 0.583
AAUAAAAGGCUUCCAGAGGAGAGUGGCCUGGGUCCCAGGGCUGGCCCUAGGCACUGAUAGUUGCCUUUUCUUCCCCUCCUGUAAGAGUAUUAACAAAACCAAAGGACACA: 0.517
AGCUGCCCGGGGUGGCACGUCGCGAAAGCUUGUUUCCCCACGGUCUGGCUUCUGCAGGGGAAAUUUCAAGGCCACUGGCGUGGACCAUCUGGGUGUCCUCAGCCCCUGUG: 0.673
CUGCCACGGGCCACUGGCUGCUGGGGACUGGGGACUGGGCAGAGACUGAGCCAGGCAGGAAGGCAGCAGCCUUCAGCCUCUCUGGCCCACUCGGACAACUUCCCAAGGCC: 0.3
GGACAAGAACACUUGAACACACAGAACGGAGACUAUGCCUAGUGUAGGUUUUGCAGUUAAUGGCCUGAAUGCUAGAUAUCAGAUCACCUGUUUCGCUGUGGGAACAGGAG: 0.728
UAAGUGUUGAUUAUAUGUGCUGGGUCUCUAGAGAAGUUUUUAUUUGUUACAAUACUGCUGCUUUGAGCAAUUUUGUUUCUCUUCAUUGUCUGUUAGGGAAAUCACCAGCU: 0.775
UUGCCUACCUCCUUGCAUGGACAGGGGGAUGAAUAUUUACUUUCCCACCUCCUUGCUUUUUCUUUCACUGAUACCACUGAAUGGAACUGGUGCUGUGACUCCUGCUGCUG: 1.89
CUUCUAAGAACCGUUUUCCCAAAUGGGUUCCCAUAUUCAUGCACCCAAAGCAAUGGUCCCCAAGCACUGAUGAAAACUAAUAUGCAUUUCCCAAAGACCCACACUAUGUA: 0.585
UUUCAGCCCCUCCCUGGAAUAGUGAGUUGGGAGGAUGGGGAGACAGCUAACCAACUGCAUUACCCAAACCAUAUUGCACUUUUAGUUCCCUAGUUUUCUAGGUGAGCUUC: 0.756
UCGAGAAGAAAAGGAGAGUAAGAAGGAAAGAGAAGAAGAAUUUAAAACUCACCAUGAAAUGAAAGAAUACUCAGGCUUUGCAGGAGUUAGCCGACCACGAGGAACCUUGU: 0.591
UAGCACAGAGGAUGCCCCAACAAACUCAUGGCGUUGAAACCACACAGUUCUCAUUACUGUUAUUUAUUAGCUGUAGCAUUCUCUGUCUCCUCUCUCUCCUCCUUUGACCU: 0.34

Set 2
Target: ABI1, truncated, D143A, DHFR fusion (Arabidopsis thaliana)
Technique: DHFR PCA, deep sequencing
Matrix: yeast
Notes: methotrexate growth selection, single substitutions
Together with: (+)-ABA 58 µM
Relative to: wild-type fitted maximum
Reading: higher = stronger binding
Measurement: relative binding score
Parent: PYL1, truncated, DHFR fusion (Arabidopsis thaliana); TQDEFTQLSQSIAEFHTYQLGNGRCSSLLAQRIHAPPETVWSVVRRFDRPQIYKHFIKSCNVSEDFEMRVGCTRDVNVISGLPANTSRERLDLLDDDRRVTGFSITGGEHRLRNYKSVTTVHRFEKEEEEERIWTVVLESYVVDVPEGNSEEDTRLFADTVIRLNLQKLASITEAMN
R90G: -12.9%
L164R: 83.3%
G148S: 67.9%
A84Y: 55.9%
V43M: 71.6%
P36H: 85.6%
R45G: 18.5%
L29N: 82.1%
V143E: -0.37%
L20T: 92.3%
T120C: 7.17%
W134M: 96.4%
Y18W: 88.3%
H16E: 6.2%
F56T: -0.603%
V161D: 1.54%
F124N: 58.8%
H34G: 75.9%
V62Q: 35.8%
V44H: -8.55%
T17H: 80.1%
S26L: 11%
F5R: 87.5%
Q31E: 54.5%
R163L: 40.4%

Set 3
Target: Ras GTPase-activating protein-binding protein 1, C-terminal RGG region (G3BP1, Homo sapiens, UniProt Q13283)
Chain of UniProt Q13283 (whole entry, looked up): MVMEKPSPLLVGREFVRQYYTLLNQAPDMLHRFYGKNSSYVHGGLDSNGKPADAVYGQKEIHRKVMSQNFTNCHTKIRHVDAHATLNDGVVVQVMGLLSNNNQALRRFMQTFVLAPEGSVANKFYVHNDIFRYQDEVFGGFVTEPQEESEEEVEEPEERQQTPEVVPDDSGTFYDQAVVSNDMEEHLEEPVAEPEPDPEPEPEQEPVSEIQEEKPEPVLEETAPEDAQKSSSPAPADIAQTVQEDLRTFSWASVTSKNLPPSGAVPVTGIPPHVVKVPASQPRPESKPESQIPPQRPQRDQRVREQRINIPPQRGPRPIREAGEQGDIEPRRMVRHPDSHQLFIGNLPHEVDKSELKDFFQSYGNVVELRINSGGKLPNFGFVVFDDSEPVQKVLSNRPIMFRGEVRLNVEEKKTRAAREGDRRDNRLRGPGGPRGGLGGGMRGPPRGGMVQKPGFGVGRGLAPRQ
Technique: RNA Bind-n-Seq
Form: RNA
Matrix: in vitro
Concentration: 1 µM
Notes: whole 134-nt RNA, ends assumed
Together with: 150 mM KCl
Relative to: input library
Reading: higher = stronger binding
Measurement: log2 enrichment
All sequences stand within: GGGAGUUCUACAGUCCGACGAUC … UGGAAUUCUCGGGUGUCAAGG
GUCCUGUGCUACACAUCGUAUGUACCGAAUCGGGGCCCCGGGCCCCGGGGCCCCGGGGAAAGUAUUAUGUUACGCCGUUCGGAUCUGCAC: -2.51
CGCUAAAGAGGAGCACGGUGGACUGAUGUGAGCUUCUCUUCCUGCCCCUUCCUCCCUGAUGUCCACUCCCUUCACCUUCCUCACGCCCGU: 0.0574
UGGGAGGUGGAUUUUGUUGAUUUUUUUAGCUCAUUUCCAGGGGUGGGAAUUUUUUUUUAAUAUGUGUCAUGAAUAAAGUUGUUUUUGAAA: 1.79
UGGCCCUGGUGGCAUGCGGGGAGGAAGAGGUGGCCUCAUGGAUCGUGGUGGUCCCGGGGGAAUGUUCAGAGGUGGCCGUGGUGGAGACAG: 2.21
GUCCUGUGCUACACAUCGUAUGUACCGAAUCGGGUUUGGGAAAAAAAGGGAAAAAGGGAAAGUAUUAUGUUACGCCGUUCGGAUCUGCAC: 0.0626
CACAGACAACACGCACCCACACAGACACAGAGGGAAGGGGUUGGGAUGGGGACAGGGUGCACAGCAGAAAGGGGUAGGACCCCAGCCCCU: -0.326
CCUGUGCUACACAUCGUAUGUACCGAAUCGGUUUUUUGGGGUUUUUUGGGGUUUUUUGGGGAAAGUAUUAUGUUACGCCGUUCGGAUCUG: -1.13
CUGUGCUACACAUCGUAUGUACCGAAUCGGUUUUUUUGGUUUUUUUGGGGUUUUUUUGGGGAAAGUAUUAUGUUACGCCGUUCGGAUCUG: -1.31
UCAAGUCCUGUGCUACACAUCGUAUGUACCGAAUCGGAAAAAAAGGAAAGGAGGAAAGUAUUAUGUUACGCCGUUCGGAUCUGCACUUCC: -1.34
GCAGGAUGUAAAAACAAAUGGAAAUGCUUCGGAUAGUGGCAGGGGUGGGGGUUGCUAAGGAAAGGGUGGGAUGGGAGUGGGUAAAGAGUU: 1.94
GUCCUGUGCUACACAUCGUAUGUACCGAAUCGGUUUUUUUGGAAAAAAAGGUUUUUGGAAAGUAUUAUGUUACGCCGUUCGGAUCUGCAC: -1.95
AGUCCUGUGCUACACAUCGUAUGUACCGAAUCGGAAAAAGGUUUUUUUGGUUUUUGGAAAGUAUUAUGUUACGCCGUUCGGAUCUGCACU: -2.56
AAGUCCUGUGCUACACAUCGUAUGUACCGAAUCGUGUGUGUGUGUGUGUGUGUGUGAAAGUAUUAUGUUACGCCGUUCGGAUCUGCACUU: 1.29
CACAGACAACACGCACCCACACAGACACAGAGGGAAGGGGUUGGGAUGGGGACAGGAAACACAGCAGGGCGGGGUAGGACCCCAGCCCCU: 0.00491

Set 4
Target: Max dimerization protein 1, bHLH-zipper, MAX partner unstated (MXD1, Homo sapiens, UniProt Q05195, residues 56-136)
Technique: protein-binding microarray
Form: double-stranded DNA, one strand shown
Matrix: in vitro
Concentration: not given
Notes: k-mer, scored over probes, only values ≥0.25
Reading: higher = stronger binding
Measurement: E-score
Construct (chain): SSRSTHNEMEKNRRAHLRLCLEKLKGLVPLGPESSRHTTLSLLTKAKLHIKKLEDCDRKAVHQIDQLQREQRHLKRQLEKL
AAATGTGC: 0.336
ACCGCATG: 0.373
ACGTGTTC: 0.411
ACACGCAT: 0.365
ACACGCTG: 0.362
ACGTGGAA: 0.376
ACACGGGA: 0.283
ACATGCTG: 0.422
CGCCCCTC: 0.283
ATCGCATG: 0.298
ACAACGCG: 0.267
CGTCATGC: 0.274
CCTCCCCC: 0.296
GCGTGGCC: 0.374
CACGCATA: 0.309
ACATGACC: 0.3
ACGTGTTG: 0.413
GCAATGCC: 0.258
CCCGTCCC: 0.32

Set 5
Target: PABPC1L2, full length, GST fusion (mouse, UniProt A0ABA7IW68)
Technique: RNAcompete
Form: RNA
Matrix: in vitro
Concentration: 20 nM
Notes: 7-mer, probes averaged, single round
Relative to: mean of 7-mers
Reading: higher = stronger binding
Measurement: 7-mer Z-score
Construct (chain): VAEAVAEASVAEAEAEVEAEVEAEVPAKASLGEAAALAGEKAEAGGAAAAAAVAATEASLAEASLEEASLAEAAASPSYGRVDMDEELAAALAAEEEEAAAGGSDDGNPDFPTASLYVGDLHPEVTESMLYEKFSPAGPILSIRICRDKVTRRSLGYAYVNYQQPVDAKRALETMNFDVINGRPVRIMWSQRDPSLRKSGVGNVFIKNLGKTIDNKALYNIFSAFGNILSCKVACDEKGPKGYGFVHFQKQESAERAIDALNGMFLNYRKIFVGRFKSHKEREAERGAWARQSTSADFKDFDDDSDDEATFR
CGCUCAC: -0.4
AGGGACU: 0.234
CCUAAUA: -0.3
CGAUCCG: -0.251
UGAUGUG: -0.0573
AAAGCUG: 0.804
CCUAAGA: -0.117
GGGCACU: 0.169
CCGCGAU: -0.0826
UGUUAGA: -0.135
GUUAACC: -0.324
CUGGUCA: -0.135
UGGGCAG: 0.202
CCUACCC: -0.382
CGUGGAU: 0.269
GGUUAAG: 0.111
AUCACAU: -0.121
AAAUCCA: 0.871
GGAGCCC: -0.202
AUGGGAG: 0.263
CGAGAUA: 0.0497
UGGGUCA: 0.158
GAGCCGC: -0.293
UCAACUC: -0.235
CACGGUU: -0.0971

Set 6
Organism: Saccharomyces cerevisiae
Effect on: binding
Technique: competitive growth deep sequencing
Form: peptide
Strain: cyclin E1-Cln2 fusion strain
Notes: peptide tiling library
Reading: direction not given
Measurement: enrichment score
KPKPVKPVTFSTGIKM: 2.94
KPHVSDEEEEEPPFYH: 1.01
PAKRRLELGE: 0.474
PKRAKRKLYTSEISSP: -0.527
SSEVARHLLFQSHM: -0.939
DGCSPIKNWSPMRL: 1.83
IVLICAKRSLCAAFSV: -1.11
VLVRTSACRSLFGPVD: 0.602
GLPDFVFQQQPVESEA: 0.945
PKNAKRNLSSEFAN: 0.0909
PARRRLRLSVDEVSSP: -0.411
DTERAHSTLDEDLERW: -1.43
TARRIFQEPTEPKTKA: -1.48
FQDSGYNELKSCSFDN: 1.03
SMTDFYHSKRRLIFSK: -0.807
SAVPLILPQAPSGPSY: 2.51

Some of these lines once more (set 6):
PAKRRLELGE: 0.474
PKNAKRNLSSEFAN: 0.0909
GLPDFVFQQQPVESEA: 0.945
DTERAHSTLDEDLERW: -1.43
SMTDFYHSKRRLIFSK: -0.807
KPKPVKPVTFSTGIKM: 2.94
KPHVSDEEEEEPPFYH: 1.01
VLVRTSACRSLFGPVD: 0.602
FQDSGYNELKSCSFDN: 1.03
TARRIFQEPTEPKTKA: -1.48
DGCSPIKNWSPMRL: 1.83
IVLICAKRSLCAAFSV: -1.11
PARRRLRLSVDEVSSP: -0.411
SSEVARHLLFQSHM: -0.939
